Experimental data from different studies.
A part holds a random share of what one study measured.

Series 1
Target: Sal-like protein 4, full length isoform A (SALL4, Homo sapiens, UniProt Q9UJQ4, residues 1-1053)
Chain of UniProt Q9UJQ4 (whole entry, looked up): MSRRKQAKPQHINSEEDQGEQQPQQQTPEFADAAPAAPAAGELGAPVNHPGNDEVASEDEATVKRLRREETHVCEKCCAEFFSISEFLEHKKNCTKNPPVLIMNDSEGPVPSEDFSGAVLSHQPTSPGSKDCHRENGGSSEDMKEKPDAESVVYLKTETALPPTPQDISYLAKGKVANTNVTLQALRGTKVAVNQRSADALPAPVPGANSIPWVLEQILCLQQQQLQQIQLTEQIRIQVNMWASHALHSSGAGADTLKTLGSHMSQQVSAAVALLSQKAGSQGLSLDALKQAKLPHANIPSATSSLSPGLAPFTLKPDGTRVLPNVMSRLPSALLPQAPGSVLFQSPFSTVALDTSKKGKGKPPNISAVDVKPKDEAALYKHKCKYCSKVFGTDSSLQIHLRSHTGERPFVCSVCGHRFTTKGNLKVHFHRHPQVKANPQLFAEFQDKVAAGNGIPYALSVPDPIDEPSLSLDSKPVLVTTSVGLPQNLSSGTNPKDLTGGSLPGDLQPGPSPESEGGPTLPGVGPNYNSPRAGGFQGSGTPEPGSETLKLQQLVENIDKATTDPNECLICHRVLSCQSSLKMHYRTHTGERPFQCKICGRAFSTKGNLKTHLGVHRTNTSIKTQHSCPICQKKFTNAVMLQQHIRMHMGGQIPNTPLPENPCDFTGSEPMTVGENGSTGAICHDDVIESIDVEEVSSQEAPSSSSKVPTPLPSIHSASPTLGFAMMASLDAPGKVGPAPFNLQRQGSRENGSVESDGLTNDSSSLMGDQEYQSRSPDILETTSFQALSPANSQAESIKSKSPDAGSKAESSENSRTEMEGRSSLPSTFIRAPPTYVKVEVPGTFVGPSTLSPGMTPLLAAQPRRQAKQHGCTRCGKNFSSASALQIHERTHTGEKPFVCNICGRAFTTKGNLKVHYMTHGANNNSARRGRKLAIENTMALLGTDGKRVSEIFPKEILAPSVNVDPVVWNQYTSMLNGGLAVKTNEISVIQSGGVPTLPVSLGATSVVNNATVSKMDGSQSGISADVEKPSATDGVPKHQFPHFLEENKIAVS
Technique: universal PBM
Molecule type: double-stranded DNA, one strand shown
Medium: in vitro
Tested at: 600 nM
Notes: 8-mer, flanks averaged, mean of replicates
Direction: higher = stronger binding
Measurement: E-score
ATGTCTGA: 0.158
CAGCGACG: -0.283
ATCCGATA: 0.127
AAACATCT: 0.251
ACTCGACA: -0.0371
ACTGAGTA: 0.0569
GTTGATTA: 0.25
GAGATACC: -0.0381
AGTACCTG: 0.0783
TATAGGGA: 0.109
TAAAGAGA: 0.0761
CCGTATGA: 0.166
CCCTTCAG: -0.168
GGCAACAA: 0.029
GAACGCCC: -0.195
CCTCGCTA: -0.111
GTAATCGA: 0.069
ACGAAGAT: 0.134
AAAGCGGT: -0.0543
CCCCGCCA: -0.0746
AGCTTGGC: -0.235
AGCCCTGC: -0.316
ATTTCAGC: 0.168
AGTGGGTC: -0.265
AAGCGCTA: 0.0897

Series 2
Target: Interferon regulatory factor 3, full length, phosphomimetic (IRF3, Homo sapiens, UniProt Q14653, residues 1-427, S386D/S396D/S398D/S402D/T404D/S405D)
Technique: protein-binding microarray
Molecule type: double-stranded DNA, one strand shown
Medium: in vitro
Tested at: 2540 nM top
Notes: 60-bp whole probe
Added: salmon DNA 0.4 mg/ml
Reference: random background probes
Direction: higher = stronger binding
Measurement: fitted relative affinity
Shared flanks, not repeated: GCCTAGCAC … GTCTTGATTCGCTTGACGCTGCTG
Residues (chain): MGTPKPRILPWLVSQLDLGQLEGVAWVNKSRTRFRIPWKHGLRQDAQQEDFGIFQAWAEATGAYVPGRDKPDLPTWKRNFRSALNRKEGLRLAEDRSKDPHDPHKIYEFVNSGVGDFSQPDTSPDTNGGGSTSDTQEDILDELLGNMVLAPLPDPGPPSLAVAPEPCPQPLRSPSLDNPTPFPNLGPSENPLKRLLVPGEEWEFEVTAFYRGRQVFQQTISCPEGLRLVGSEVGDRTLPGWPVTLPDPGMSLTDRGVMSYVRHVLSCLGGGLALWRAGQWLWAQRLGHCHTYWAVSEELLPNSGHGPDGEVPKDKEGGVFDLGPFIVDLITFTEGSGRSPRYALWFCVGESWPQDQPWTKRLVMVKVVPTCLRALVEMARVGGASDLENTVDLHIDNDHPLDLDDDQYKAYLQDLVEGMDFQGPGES
GACGATTTCAGGTATCGAGACGTGCTA: 1.35 z-score
GACGCTATCGGACTGGGGACGTGCTAG: -0.234 z-score
GAGCTCCTCCTTCTCTAACCGTGCTAG: 1.23 z-score
TTAGGAATGGGGTATCGGTTAGTGCTA: 0.153 z-score
TATATTCTATTCCTTTAACAGTGCTAG: 1.72 z-score
TTAGGTATCCTTCTCCATTAGTGCTAG: 7.16 z-score
TTAGATCTCAGACTGGGTTAGTGCTAG: -0.234 z-score
TCATATTTGCAACATCCCACTGTGCTA: 0.791 z-score
GACGATATCAGACTAGAGACGTGCTAG: 0.63 z-score
GACGATTTCAGTTTCAAGACGTGCTAG: 3.55 z-score
GTAGGACTGGGTCTCGGTTAGTGCTAG: -0.882 z-score
TTAGGTTTCGATTATCGGTTAGTGCTA: 5.77 z-score
GACGATTTCAGTACCGAGACGTGCTAG: 1.57 z-score
TCACCATTGGTCTTCACACTGTGCTAG: -0.0343 z-score
CGAGTTTTCTCTCCCATTCTGTGCTAG: 1.51 z-score
TTAGATTCCAGCTTCGATTAGTGCTAG: 2.02 z-score
TCAATGATTTTTTTCATACTGTGCTAG: 0.319 z-score
TCACTTCTATAGGCTAGAACTGTGCTA: 0.898 z-score
GACGGTTCCGGTTTCGTGACGTGCTAG: 5.15 z-score
GACGGACTAGGGTATCGGGACGTGCTA: -0.255 z-score
TTAGGACTGGGACTGGGTTGGTGCTAG: -1 z-score
GACGGGCTGCTTCTCCTGACGTGCTAG: -0.757 z-score
ATAGGTTCCCTTTTCCTTTAGTGCTAG: 7.38 z-score

Series 3
Target: Prothrombin, mature alpha-thrombin (F2, Homo sapiens, UniProt P00734)
Technique: aptamer microarray, sandwich
Molecule type: DNA with 2'F-ANA
Medium: in vitro
Tested at: 200 nM
Notes: whole 15-mer aptamer, many near background
Added: Cy3 exosite-II aptamer, 400 nM
Direction: higher = stronger binding
Measurement: mean fluorescence intensity
Strand: GGTTGGTGTGGTTGG
2'F-ANA at 4 6 8 9 10 12 13: 79.6 a.u.
2'F-ANA at 5 6 7 8 11 12 15: 128 a.u.
2'F-ANA at 2 3 7 9 10 11 14: 242 a.u.
2'F-ANA at 2 3 4 7 8 9 11 14 15: 256 a.u.
2'F-ANA at 1 3 5 8 9 10 12 13 14: 61 a.u.
2'F-ANA at 5 9 10 14: 45.3 a.u.
2'F-ANA at 1 2 3 9 10 11 12 14 15: 53 a.u.
2'F-ANA at 1 2 9 10 14 15: 45.7 a.u.
2'F-ANA at 1 2 4 7 8: 157 a.u.
2'F-ANA at 3 4 8 10 11 15: 251 a.u.
2'F-ANA at 1 2 3 4 5 7 8 10 13 15: 50.8 a.u.
2'F-ANA at 1 3 4 6 7 8 10 12 13: 69.2 a.u.
2'F-ANA at 1 2 3 5 6 7 8 12 14 15: 61 a.u.
2'F-ANA at 1 3 4 5 6 7 9 10 11 12 13: 53.3 a.u.
2'F-ANA at 3 4 5 7 8 9 12 15: 201 a.u.
2'F-ANA at 1 4 6 8 9 10 11 12 15: 54.6 a.u.
2'F-ANA at 2 3 4 5 6 7 8 9 10 11 13 14: 82.4 a.u.
2'F-ANA at 6 9 10 11 13 15: 126 a.u.
2'F-ANA at 1 2 6 7 11 12 14 15: 66.5 a.u.
2'F-ANA at 2 5 7 8 9 10 12: 50.7 a.u.
2'F-ANA at 4 5 7 9 10 11 14: 46.5 a.u.
2'F-ANA at 3 5 6 13: 79.8 a.u.
2'F-ANA at 2 4 5 8 10 11 12 13 15: 45.4 a.u.
2'F-ANA at 3 4 5 7 8 9 12 14 15: 142 a.u.

Series 4
Target: RING finger protein unkempt homolog, zinc fingers 1-6, GST-SBP tag (UNK, Homo sapiens, UniProt Q9C0B0, residues 30-357)
Chain of UniProt Q9C0B0 (30-357, looked up): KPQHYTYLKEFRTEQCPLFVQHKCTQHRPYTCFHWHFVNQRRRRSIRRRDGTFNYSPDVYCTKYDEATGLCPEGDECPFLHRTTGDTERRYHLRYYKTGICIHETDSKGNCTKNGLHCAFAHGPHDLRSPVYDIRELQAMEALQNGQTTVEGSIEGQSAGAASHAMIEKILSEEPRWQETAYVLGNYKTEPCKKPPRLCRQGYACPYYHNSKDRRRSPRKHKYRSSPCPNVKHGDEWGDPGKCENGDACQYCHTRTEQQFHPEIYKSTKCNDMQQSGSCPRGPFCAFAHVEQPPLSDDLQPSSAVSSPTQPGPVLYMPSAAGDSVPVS
Technique: RNA Bind-n-Seq
Molecule type: RNA
Medium: in vitro
Tested at: not given
Notes: RNA with constant flanks, human and mouse sites, ends assumed
Reference: input RNA pool
Direction: higher = stronger binding
Measurement: bound/input enrichment
Shared flanks, not repeated: GGGAGUUCUACAGUCCGACGAUC … CAACAGAGGAUUGAGCAUCA
UGUCCUUCCUUUUCCUCUCCUUUCAUGACAAAGCAUCCUUCUUGUUUCCCUUCUCUCUAUGUCGCUAAGUCAGUGGUUCUCAACCUGUGGGUCACAAUCCCUUUGGAGGUUGAAUAACUC: 0.424 ratio
UUUUUCUGUGCUCAAUGUGUAAAUUGUAUUAUAAUUCAUUGUGAUUUAUUUCACUUUUAAUUUGCUGGUGUUUUAAUAAAUGGGGGUGUUACUGAAUCUUUCUUCCCACUUCCAUUUCUU: 0.678 ratio
AAGGAUGACUUCUUAGGAGCUGCAGAAGGAAAACUGCAAUGCAAUCGUUUAAUGCCUAAUUCACAAAAAGACUGUCAUUGUUUAGGAGAUGUCUUAAUUGAAAAUACGAAAGAAUCUAAA: 1.34 ratio
GAGCCAAGUCGGCAGUUUGUAAAGGACUCCAUUCGGCUGGUUAAAAGAUGCACUAAACCUGAUAGAAAAGAAUUCCAGAAGAUUGCCAUGGCAACAGCAAUAGGAUUUGCUAUAAUGGGA: 0.461 ratio
AGGAAAAACCAAACUACAAAGAGAUUUGUUUAUAAUAUACCGCCUAACAGUGAGACAAAGGUAGAAGAUUGCUCAGUGAUGCAGCCCCCUGCUGCCUACCCAGAAGAAAGCAAGGCCUUA: 0.259 ratio
GGUGGAGAUGGAGAUGAUAUGGAAAUAUUCAUGGAGGAGAUGAGAGAAAUCAGAAGAAAACUUAGGGAGCUGCAGUUGAGGAAUUGUCUGCGUAUCCUUAUGGGGGAGCUCUCUAAUCAC: 0.414 ratio
GCGGCGGCGGGGUCGCGGACAUGGCUUCUUGGAGCGCGCCUUCACCUAGCCUUGUAGAGUAUUUUGAGGGCCAGACCUCCUUCCAGUGUGGCUACUGCAAGAACAAGUUGGGCAGUCGCU: 0.355 ratio
CUGCUUCCUACCAUUGGAAGUCCUUUCUGGCUUUUUGUGGAGUACUUUUUGCUGUAUGUAACUUUUAAGUAAUGUUUUGUUGGACUUUCUUCUGAGUCCUCUGAUUAAUAAUAUGUUUUC: 0.375 ratio
UCAUUUUUUGCUGGGGAUAAAAAAGAAGCACACAAACUAAAGGAGGACUUUCGACUGCAUUUUAGAAAUAUUUCAAGAAUUAUGGAUUGUGUUGGUUGUUUUAAAUGUCGUCUGUGGGGA: 4.11 ratio
GUUUACGAGGUCACCUCUACCAAGUACACACGCGAUAUUUACAAAGAGCUCCUCAUCUCCUUGGUGGCCUCACUCUUCAUGGGCUUUGGAGUCCUCUUCCUCCUGCUCUGGGUUGGCAUC: 0.17 ratio
AAGGGUGAUUACUUCCGGUACCUUGCUGAAGUUGCGUGUGGUGAUGAUCGAAAACAAACGAUAGAUAAUUCCCAAGGAGCUUACCAAGAGGCAUUUGAUAUAAGCAAGAAAGAGAUGCAA: 0.344 ratio

A few entries again (series 2):
GACGGGCTGCTTCTCCTGACGTGCTAG: -0.757 z-score
TCAATGATTTTTTTCATACTGTGCTAG: 0.319 z-score
GACGATTTCAGTTTCAAGACGTGCTAG: 3.55 z-score
GACGATATCAGACTAGAGACGTGCTAG: 0.63 z-score
TTAGATTCCAGCTTCGATTAGTGCTAG: 2.02 z-score
